Published values pooled from the literature.
Each line is one published result; not all experiments were run side by side. Numbers after ± are the reported error.
Cell line: HeLa

SMILES | observed | method | sample | time | setting | IC50
O=C1CCC(N2Cc3c(NC(=O)COCCOCCOCCNCCNc4nonc4/C(=N/O)Nc4ccc(F)c(Br)c4)cccc3C2=O)C(=O)N1 (centres unmarked) | cytotoxicity | MTT | – | 48 h | – | > 40 µM
Oc1c(Br)cc(Br)c2nc3cc(F)ccc3nc12 | cytotoxicity | LDH release | – | 24 h | 10% FBS | > 100 µM
CC(=O)[O-].Nc1ccc(C([O-])=NN=Cc2ccc(OCC(=O)Nc3ccc(Cl)cc3)cc2)cc1.O.O.O.[Co+2] | cytotoxicity | MTT | – | 24 h | – | 19.7 ± 2 µg/mL
CC1=[N+]2N=C(c3ccccc3)[O][Pd-2]2([Cl])[O+]=C2Oc3ccccc3C=C21 (centres unmarked) | cytotoxicity | MTT | – | 24 h | – | 10.8 ± 0.9 µM
Oc1c(Br)cc(Br)c2nc3cc(C(F)(F)F)ccc3nc12 | cytotoxicity | LDH release | – | 24 h | 10% FBS | > 100 µM
CC1(C(=O)O)CCC2(C(=O)O)CCC3(C)C(=CCC4C5(C)CCC(O)C(C)(C)C5CCC43C)C2C1 (centres unmarked) | cell growth or viability | MTT | – | 72 h | – | 81.5 µM
COCCOCCOc1ccc([P+](Cc2ccc(C3=C4C(C)=CC(C)=[N+]4[B-](F)(F)n4c(C)cc(C)c43)cc2)(c2ccc(OCCOCCOC)cc2)c2ccc(OCCOCCOC)cc2)cc1 | cell growth or viability | MTT | – | 24 h | – | 8 µM
O=C(/C=C/c1ccccc1)Oc1ccc2c(c1)O/C(=C\C=C\c1ccccc1)C2=O | cell growth or viability | MTT | – | 72 h | – | 35 µM
OCCOCCOCCOCCOCCOCCOCCOCCNCCNc1nonc1/C(=N/O)Nc1ccc(F)c(Br)c1 | cytotoxicity | MTT | – | 48 h | – | > 40 µM
NC(=O)c1cc2c3ccccc3ccn2c1-c1ccccc1 | cytotoxicity | flow cytometry propidium iodide | – | 48 h | 10% FBS | 0.554 ± 0.087 µM
CC(=O)Nc1ccc(-c2csc(Nc3ccc(C)cc3)n2)cc1 | cell growth or viability | resazurin | – | 72 h | – | 39 µM
Oc1c(Br)cc(Br)c2nc3cc(SC(F)(F)F)ccc3nc12 | cytotoxicity | LDH release | – | 24 h | 10% FBS | > 100 µM
O=C1CCC(N2C(=O)c3cccc(NCCOCCOCCOCCOCCOCCOCCOCCO)c3C2=O)C(=O)N1 (centres unmarked) | cytotoxicity | MTT | – | 48 h | – | > 40 µM
CC1(C)CC[C@]2(C(=O)O)CC[C@]3(C)C(=CC[C@@H]4[C@@]5(C)CC[C@H](O)[C@@](C)(C(=O)O)[C@@H]5CC[C@]43C)[C@@H]2C1 | cell growth or viability | MTT | – | 72 h | – | 43.6 µM
Oc1c(Br)cc(Br)c2nc3cc(I)ccc3nc12 | cytotoxicity | LDH release | – | 24 h | 10% FBS | > 100 µM
C[C@H](NC(=O)CCCCCC1(C)C(/C=C/C=C/C=C2/N(CCCS(=O)(=O)O)c3ccc(S(=O)(=O)O)cc3C2(C)C)=[N+](CCCS(=O)(=O)[O-])c2ccc(S(=O)(=O)O)cc21)C(=O)N[C@@H](CC(=O)Nc1ccc(C(F)(F)C(F)(F)C(F)(F)C(F)(F)C(F)(F)C(F)(F)C(F)(F)C(F)(F)C(F)(F)C(F)(F)F)cc1)C(=O)N[C@@H](Cc1ccccc1)C(N)=O (some centres unmarked) | cytotoxicity | – | serum-free DMEM | 1 h | – | 34 ± 2 µM
CC(=O)Nc1ccc(-c2csc(Nc3cccc(F)c3)n2)cc1 | cell growth or viability | resazurin | – | 72 h | – | 30 µM

A few entries again:
SMILES | observed | method | sample | time | setting | IC50
Oc1c(Br)cc(Br)c2nc3cc(SC(F)(F)F)ccc3nc12 | cytotoxicity | LDH release | – | 24 h | 10% FBS | > 100 µM
O=C1CCC(N2C(=O)c3cccc(NCCOCCOCCOCCOCCOCCOCCOCCO)c3C2=O)C(=O)N1 (centres unmarked) | cytotoxicity | MTT | – | 48 h | – | > 40 µM
